Published values from different studies.
A part holds a random share of what one study measured. Positions count from the first letter of the parent shown.
Chain of UniProt Q9Y2X8 (whole entry, looked up): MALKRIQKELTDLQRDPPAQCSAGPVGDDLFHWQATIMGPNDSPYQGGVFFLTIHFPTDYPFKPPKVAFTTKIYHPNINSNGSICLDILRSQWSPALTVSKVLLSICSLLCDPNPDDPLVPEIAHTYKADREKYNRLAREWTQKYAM

Study 1 — target: CCNA2, cyclin fold, Cln2 fusion (human); technique: yeast growth competition, sequencing; sample: yeast; setting: strong parent motif; baseline: not given; direction: higher = stronger binding; endpoint: normalised enrichment score
Starting sequence: CDC25A docking peptide (human); PPHRRRLLFACSP
Change = PPHRRRLLFAWSP [C11W]; value = 2.04
Change = PPHRRRLPFACSP [L8P]; value = 0.642
Change = EPHRRRLLFACSP [P1E]; value = 2.7
Change = PPHRRALLFACSP [R6A]; value = 1.48
Change = TPHRRRLLFACSP [P1T]; value = 2.24
Change = PPHRRRILFACSP [L7I]; value = 2.52
Change = PPHRRRLLFACYP [S12Y]; value = 2.01
Change = PPWRRRLLFACSP [H3W]; value = 2.85

Study 2 — technique: RNA Bind-n-Seq; molecule type: RNA; sample: in vitro; concentration: 20 nM; setting: 6-mer, flanks averaged, single round; together with: 150 mM KCl; baseline: input library; direction: higher = stronger binding; endpoint: 6-mer enrichment (R)
Target: TAR DNA-binding protein 43, full length, His tag (TARDBP, Homo sapiens, UniProt Q13148, residues 1-414)
Strand = GCUCUC; value = 0.608
Strand = UGUCAG; value = 0.85
Strand = GUCCCC; value = 0.714
Strand = GAUUUU; value = 0.631
Strand = AAUAGC; value = 0.683
Strand = GGGGCG; value = 8.21
Strand = UUCUCG; value = 0.577
Strand = GUAGCG; value = 1.66

Study 3 — technique: RNA Bind-n-Seq; molecule type: RNA; sample: in vitro; concentration: 90 pmol; setting: 4-mer, random 30-nt RNA, single round; baseline: input library; direction: higher = stronger binding; endpoint: 4-mer enrichment
Target: ATP-dependent RNA helicase DDX3X, helicase core (DDX3X, Homo sapiens, UniProt O00571, residues 132-607)
Chain of UniProt O00571 (132-607, looked up): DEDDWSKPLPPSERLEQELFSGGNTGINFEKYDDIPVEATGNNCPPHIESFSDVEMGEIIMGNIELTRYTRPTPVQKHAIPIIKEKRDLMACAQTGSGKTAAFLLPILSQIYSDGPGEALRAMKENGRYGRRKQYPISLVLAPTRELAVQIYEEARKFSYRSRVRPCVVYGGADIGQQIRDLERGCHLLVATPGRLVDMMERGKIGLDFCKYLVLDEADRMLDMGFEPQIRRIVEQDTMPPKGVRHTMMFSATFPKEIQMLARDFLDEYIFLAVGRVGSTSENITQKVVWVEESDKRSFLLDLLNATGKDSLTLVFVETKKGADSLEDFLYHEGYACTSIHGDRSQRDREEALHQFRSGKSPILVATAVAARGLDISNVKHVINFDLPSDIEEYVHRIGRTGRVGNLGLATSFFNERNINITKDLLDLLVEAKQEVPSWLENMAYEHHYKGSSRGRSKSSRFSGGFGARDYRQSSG
Together with: 3 µM iPr-DMDA-PatA, 2 mM ADP, 2 mM phosphate
Strand = GUCA; value = 0.944 fold
Strand = CGUG; value = 0.827 fold
Strand = GUAG; value = 1.08 fold
Strand = CUAU; value = 0.955 fold
Strand = CUUG; value = 0.757 fold
Strand = UAGA; value = 1.35 fold
Strand = AACC; value = 1.24 fold
Strand = GCUA; value = 0.833 fold

Mixed results
Molecule = VPADASPDSKCPICLDRFDNVSYLDRCLHKFCFRCVQEWSKNKAECPLCKQPFDSIFHSV (TOPORS RING domain (UniProt Q9NS56)); target = UBE2D4 UBC core domain (UniProt Q9Y2X8); test = yeast two-hybrid; system = yeast; conditions = mostly zero background; scale = baseline: not given, higher = stronger interaction; endpoint = lacZ reporter activity; value = 15700

A few entries again (study 1):
Change = PPHRRRILFACSP [L7I]; value = 2.52
Change = PPHRRRLPFACSP [L8P]; value = 0.642
Change = EPHRRRLLFACSP [P1E]; value = 2.7
